Measured values gathered from unrelated publications.
Lines come from different studies, so protocols differ. ± marks the error that the study gave.
Action: agonist
Toll-like receptor 1/2: Toll-like receptor 1/2 (Homo sapiens, UniProt O60603+Q15399)
UniProt O60603, sequence (whole entry, looked up): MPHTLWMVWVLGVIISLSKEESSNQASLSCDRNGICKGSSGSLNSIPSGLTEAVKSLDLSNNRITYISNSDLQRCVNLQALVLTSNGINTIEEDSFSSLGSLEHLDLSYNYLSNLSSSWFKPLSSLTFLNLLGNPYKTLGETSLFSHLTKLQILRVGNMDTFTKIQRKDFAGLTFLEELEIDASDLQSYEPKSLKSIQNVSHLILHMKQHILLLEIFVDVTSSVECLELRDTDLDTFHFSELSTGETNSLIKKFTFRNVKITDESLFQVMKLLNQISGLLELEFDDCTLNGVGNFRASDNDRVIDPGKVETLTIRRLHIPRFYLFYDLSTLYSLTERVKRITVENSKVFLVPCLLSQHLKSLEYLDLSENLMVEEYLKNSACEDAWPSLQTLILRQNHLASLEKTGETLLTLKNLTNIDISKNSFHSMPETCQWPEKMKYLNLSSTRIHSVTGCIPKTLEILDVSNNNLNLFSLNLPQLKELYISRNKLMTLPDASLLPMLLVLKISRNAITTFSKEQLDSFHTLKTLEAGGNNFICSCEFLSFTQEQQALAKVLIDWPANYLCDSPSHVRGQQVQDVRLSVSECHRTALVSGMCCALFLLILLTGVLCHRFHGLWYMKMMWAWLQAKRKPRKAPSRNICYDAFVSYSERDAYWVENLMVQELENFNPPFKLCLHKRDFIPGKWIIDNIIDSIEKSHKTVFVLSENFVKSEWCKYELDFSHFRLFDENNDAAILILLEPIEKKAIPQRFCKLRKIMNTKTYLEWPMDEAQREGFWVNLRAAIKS
UniProt Q15399, sequence (whole entry, looked up): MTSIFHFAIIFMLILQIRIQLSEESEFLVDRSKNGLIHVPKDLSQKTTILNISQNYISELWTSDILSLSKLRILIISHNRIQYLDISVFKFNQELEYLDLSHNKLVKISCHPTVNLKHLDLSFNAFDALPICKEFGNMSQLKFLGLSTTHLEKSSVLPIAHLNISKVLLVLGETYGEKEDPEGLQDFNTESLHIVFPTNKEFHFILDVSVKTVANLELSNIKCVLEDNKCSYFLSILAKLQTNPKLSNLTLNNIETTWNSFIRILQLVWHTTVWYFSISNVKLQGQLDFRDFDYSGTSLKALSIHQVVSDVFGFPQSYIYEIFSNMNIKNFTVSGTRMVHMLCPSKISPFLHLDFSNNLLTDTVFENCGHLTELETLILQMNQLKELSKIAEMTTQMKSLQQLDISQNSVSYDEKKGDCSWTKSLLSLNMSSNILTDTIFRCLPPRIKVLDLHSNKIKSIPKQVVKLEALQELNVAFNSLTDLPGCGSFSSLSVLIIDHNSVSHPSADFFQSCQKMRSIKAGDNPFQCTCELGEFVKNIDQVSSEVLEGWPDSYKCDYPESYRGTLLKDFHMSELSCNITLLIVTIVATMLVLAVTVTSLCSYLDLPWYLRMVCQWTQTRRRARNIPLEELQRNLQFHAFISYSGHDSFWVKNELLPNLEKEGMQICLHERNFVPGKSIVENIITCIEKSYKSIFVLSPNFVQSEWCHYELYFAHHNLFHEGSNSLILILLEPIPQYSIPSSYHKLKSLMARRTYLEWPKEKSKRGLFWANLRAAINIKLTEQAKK
Tumor necrosis factor receptor superfamily member 9/Nectin-4: Tumor necrosis factor receptor superfamily member 9/Nectin-4 (Homo sapiens, UniProt Q07011+Q96NY8)
UniProt Q96NY8, sequence (whole entry, looked up): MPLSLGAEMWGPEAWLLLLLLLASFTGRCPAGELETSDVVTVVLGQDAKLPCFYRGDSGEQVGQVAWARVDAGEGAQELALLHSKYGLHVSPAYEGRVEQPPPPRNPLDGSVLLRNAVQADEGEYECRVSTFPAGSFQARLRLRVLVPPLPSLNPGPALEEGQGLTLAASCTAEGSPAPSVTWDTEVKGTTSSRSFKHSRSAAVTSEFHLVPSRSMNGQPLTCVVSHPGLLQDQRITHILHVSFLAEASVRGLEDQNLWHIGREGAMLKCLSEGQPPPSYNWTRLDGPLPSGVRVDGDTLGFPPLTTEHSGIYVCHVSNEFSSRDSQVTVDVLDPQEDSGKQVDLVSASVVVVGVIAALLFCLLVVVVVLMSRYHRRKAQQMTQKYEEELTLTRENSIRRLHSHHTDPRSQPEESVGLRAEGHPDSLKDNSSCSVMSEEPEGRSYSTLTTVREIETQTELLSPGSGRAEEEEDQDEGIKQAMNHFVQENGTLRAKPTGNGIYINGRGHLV
UniProt Q07011, sequence (whole entry, looked up): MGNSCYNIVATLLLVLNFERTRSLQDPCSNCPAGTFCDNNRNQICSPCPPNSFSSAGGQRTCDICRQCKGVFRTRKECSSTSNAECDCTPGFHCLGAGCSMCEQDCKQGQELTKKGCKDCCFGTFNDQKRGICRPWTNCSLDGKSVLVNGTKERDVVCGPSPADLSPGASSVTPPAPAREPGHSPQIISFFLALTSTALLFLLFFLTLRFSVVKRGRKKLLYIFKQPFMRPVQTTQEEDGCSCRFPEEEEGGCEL
OR5K1 A2T/I280V/T15M/V39I/Y193C: OR5K1 (Homo sapiens, UniProt Q8NHB7, A2T/I280V/T15M/V39I/Y193C)
UniProt Q8NHB7, sequence (whole entry, unmodified, looked up): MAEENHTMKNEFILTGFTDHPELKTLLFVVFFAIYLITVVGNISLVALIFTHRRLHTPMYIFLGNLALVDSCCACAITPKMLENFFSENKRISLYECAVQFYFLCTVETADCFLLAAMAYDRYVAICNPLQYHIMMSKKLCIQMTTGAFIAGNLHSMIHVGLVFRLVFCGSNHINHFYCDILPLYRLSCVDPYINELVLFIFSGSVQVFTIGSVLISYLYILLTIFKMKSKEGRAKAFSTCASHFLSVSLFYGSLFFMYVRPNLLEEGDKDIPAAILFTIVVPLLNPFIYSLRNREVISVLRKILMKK
UniProt Q03181, sequence (whole entry, looked up): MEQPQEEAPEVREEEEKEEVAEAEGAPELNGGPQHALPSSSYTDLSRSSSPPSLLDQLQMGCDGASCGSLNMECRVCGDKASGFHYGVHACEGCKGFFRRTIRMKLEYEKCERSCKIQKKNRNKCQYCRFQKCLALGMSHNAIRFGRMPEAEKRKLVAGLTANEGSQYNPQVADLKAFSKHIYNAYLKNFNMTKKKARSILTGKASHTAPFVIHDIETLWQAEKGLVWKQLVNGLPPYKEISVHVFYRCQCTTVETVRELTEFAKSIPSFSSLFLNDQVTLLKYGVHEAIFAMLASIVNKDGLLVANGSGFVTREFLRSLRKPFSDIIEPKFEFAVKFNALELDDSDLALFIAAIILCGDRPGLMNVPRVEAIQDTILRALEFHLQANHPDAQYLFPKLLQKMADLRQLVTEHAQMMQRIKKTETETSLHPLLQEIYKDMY
UniProt P35348, sequence (whole entry, looked up): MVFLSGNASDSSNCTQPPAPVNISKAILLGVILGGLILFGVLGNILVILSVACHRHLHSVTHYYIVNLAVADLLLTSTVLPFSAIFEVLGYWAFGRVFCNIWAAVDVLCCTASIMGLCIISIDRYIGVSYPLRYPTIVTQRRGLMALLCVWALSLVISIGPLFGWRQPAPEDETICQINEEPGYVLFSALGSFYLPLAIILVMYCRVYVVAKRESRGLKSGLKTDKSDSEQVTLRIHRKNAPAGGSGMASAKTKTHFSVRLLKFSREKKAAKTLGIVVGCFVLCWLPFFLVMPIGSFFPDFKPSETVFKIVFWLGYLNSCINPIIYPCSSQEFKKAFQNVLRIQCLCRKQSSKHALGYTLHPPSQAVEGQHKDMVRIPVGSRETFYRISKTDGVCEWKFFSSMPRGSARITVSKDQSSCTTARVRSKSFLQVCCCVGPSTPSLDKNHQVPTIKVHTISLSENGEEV
UniProt P34995, sequence (whole entry, unmodified, looked up): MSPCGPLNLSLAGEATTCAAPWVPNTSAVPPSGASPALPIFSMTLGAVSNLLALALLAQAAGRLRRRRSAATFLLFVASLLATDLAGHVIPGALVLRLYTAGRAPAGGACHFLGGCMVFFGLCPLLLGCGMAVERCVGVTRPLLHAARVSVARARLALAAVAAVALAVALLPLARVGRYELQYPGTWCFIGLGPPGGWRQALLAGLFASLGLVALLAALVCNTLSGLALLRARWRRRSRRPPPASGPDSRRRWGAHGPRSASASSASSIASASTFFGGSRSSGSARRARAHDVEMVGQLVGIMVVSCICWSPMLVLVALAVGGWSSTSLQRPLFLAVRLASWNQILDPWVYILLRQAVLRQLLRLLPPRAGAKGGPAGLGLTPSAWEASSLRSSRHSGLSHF
UniProt Q704Y3, sequence (whole entry, unmodified, looked up): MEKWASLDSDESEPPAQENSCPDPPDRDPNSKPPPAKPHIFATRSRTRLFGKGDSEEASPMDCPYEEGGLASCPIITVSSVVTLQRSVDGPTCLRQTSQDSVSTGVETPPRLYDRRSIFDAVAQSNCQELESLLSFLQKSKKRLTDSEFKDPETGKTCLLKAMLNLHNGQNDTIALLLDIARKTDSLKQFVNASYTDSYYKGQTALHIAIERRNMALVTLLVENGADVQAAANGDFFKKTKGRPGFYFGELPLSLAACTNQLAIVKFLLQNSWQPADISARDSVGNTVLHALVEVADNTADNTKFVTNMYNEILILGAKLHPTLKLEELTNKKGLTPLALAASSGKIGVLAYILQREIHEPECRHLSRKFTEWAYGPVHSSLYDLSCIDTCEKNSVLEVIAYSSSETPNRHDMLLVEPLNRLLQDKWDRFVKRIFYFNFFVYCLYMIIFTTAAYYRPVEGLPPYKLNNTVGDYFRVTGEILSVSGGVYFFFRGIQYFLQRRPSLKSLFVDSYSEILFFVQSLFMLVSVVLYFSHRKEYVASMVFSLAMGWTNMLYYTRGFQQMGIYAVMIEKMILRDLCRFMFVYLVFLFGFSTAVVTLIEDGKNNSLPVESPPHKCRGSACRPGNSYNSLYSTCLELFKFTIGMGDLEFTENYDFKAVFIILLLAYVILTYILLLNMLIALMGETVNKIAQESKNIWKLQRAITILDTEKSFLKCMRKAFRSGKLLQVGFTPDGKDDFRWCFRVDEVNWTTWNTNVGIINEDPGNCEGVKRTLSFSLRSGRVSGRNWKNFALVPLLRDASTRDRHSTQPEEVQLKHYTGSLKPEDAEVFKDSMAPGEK

SMILES	target	assay	system	conditions	EC50
O=[N+]([O-])c1ccc(-c2cn(-c3cc([N+](=O)[O-])ccc3NCc3ccccc3)cn2)cc1	Toll-like receptor 1/2	reporter gene	HEK-Blue hTLR2	24 h	> 100000 nM
CCCC[C@@H]1NC(=O)[C@H](Cc2ccc(O)cc2)NC(=O)[C@H](C)N(C)C(=O)[C@H](CC(=O)O)NC(=O)[C@H](C)NC(=O)[C@H](Cc2ccccc2)NC(=O)[C@@H]2CSCCC(=O)N3CN(CN(C3)C(=O)CCSC[C@H](NC(C)=O)C(=O)N[C@@H](CC(C)(C)C)C(=O)N3CCC[C@H]3C(=O)N[C@@H](CCC(=O)O)C(=O)N[C@H](CCCCNC(=O)CCc3cn(CCOCCOCCOCCN(CCOCCOCCOCCC(=O)N[C@H]4CSCCC(=O)N5CN6CN(C5)C(=O)CCSC[C@H](NC(=O)[C@@H](CC(=O)O)NC(=O)[C@H](Cc5cccc7ccccc57)NC(=O)[C@@H]5CCCN5C4=O)C(=O)N[C@@H](CCSC)C(=O)N[C@@H](CCCCNC(=N)N)C(=O)N[C@@H](CC(=O)O)C(=O)N[C@@H](Cc4c[nH]c5ccccc45)C(=O)N[C@@H](CO)C(=O)N[C@@H]([C@@H](C)O)C(=O)N4CCC[C@H]4C(=O)N4C[C@H](O)C[C@H]4C(=O)N[C@@H](Cc4c[nH]c5ccccc45)C(=O)N[C@H](C(N)=O)CSCCC6=O)CCOCCOCCOCCn4cc(CCC(=O)NCCCC[C@H]5NC(=O)[C@H](CCC(=O)O)NC(=O)[C@@H]6CCCN6C(=O)[C@H](CC(C)(C)C)NC(=O)[C@@H](NC(C)=O)CSCCC(=O)N6CN7CN(C6)C(=O)CCSC[C@H](NC(=O)[C@H](Cc6ccc(O)cc6)NC(=O)[C@@H]6CCCN6C5=O)C(=O)N[C@@H](Cc5ccccc5)C(=O)N[C@@H](C)C(=O)N[C@@H](CC(=O)O)C(=O)N(C)[C@@H](C)C(=O)N[C@@H](Cc5ccc(O)cc5)C(=O)N[C@@H](CCCC)C(=O)N[C@H](C(N)=O)CSCCC7=O)nn4)nn3)C(=O)N3CCC[C@H]3C(=O)N[C@@H](Cc3ccc(O)cc3)C(=O)N2)C(=O)CCSC[C@@H](C(N)=O)NC1=O	Tumor necrosis factor receptor superfamily member 9/Nectin-4	reporter gene	HT-1376 coculture with reporter cells	–	1.73 nM
Cn1cc2c(C(=O)O)ccc(NS(=O)(=O)c3ccc(OCC4CCC4)c(Cl)c3)c2n1	ADRA1A (Homo sapiens, UniProt P35348)	–	–	–	> 10000 nM
Cc1cnc(C)c(C)n1	OR5K1 A2T/I280V/T15M/V39I/Y193C	cAMP	HEK293 transfected with OR5K1	–	313000 ± 70300 nM
O=C(O)CCc1ccc(NCc2cccc(Oc3ccccc3)c2)cc1	FFAR1 (Homo sapiens, UniProt O14842)	cell-based	–	–	2530 nM
Cc1cncc(C)n1	OR5K1 A2T/I280V/T15M/V39I/Y193C	cAMP	HEK293 transfected with OR5K1	–	554000 ± 160000 nM
CCCCCCCC/C=C\CCCCCCCC(=O)NCCc1ccc(O)c(O)c1	Trpv1 (Mus musculus, UniProt Q704Y3, T557S)	ion current, whole-cell patch clamp	–	24 °C, T557S, +80 mV	310 ± 140 nM
CCCC[C@@H]1NC(=O)[C@H](Cc2ccc(O)cc2)NC(=O)[C@@H]2CCCN2C(=O)[C@H](CC(=O)O)NC(=O)[C@H](C)NC(=O)[C@H](Cc2ccccc2)NC(=O)[C@@H]2CSCCC(=O)N3CN(CN(C3)C(=O)CCSC[C@@H](C(=O)N[C@@H](C)C(N)=O)NC1=O)C(=O)CCSC[C@H](NC(C)=O)C(=O)N[C@@H](CC(C)(C)C)C(=O)N1CCC[C@H]1C(=O)N[C@@H](CCC(=O)O)C(=O)N[C@H](CCCCNC(=O)CCc1cn(CC(=O)N[C@H]3CSCCC(=O)N4CN5CN(C4)C(=O)CCSC[C@H](NC(=O)[C@@H](CC(=O)O)NC(=O)[C@H](Cc4cccc6ccccc46)NC(=O)[C@@H]4CCCN4C3=O)C(=O)N[C@@H](CCSC)C(=O)N[C@@H](CCCCNC(=N)N)C(=O)N[C@@H](CC(=O)O)C(=O)N[C@@H](Cc3c[nH]c4ccccc34)C(=O)N[C@@H](CO)C(=O)N[C@@H]([C@@H](C)O)C(=O)N3CCC[C@H]3C(=O)N3C[C@H](O)C[C@H]3C(=O)N[C@@H](Cc3c[nH]c4ccccc34)C(=O)N[C@H](C(N)=O)CSCCC5=O)nn1)C(=O)N1CCC[C@H]1C(=O)N[C@@H](Cc1ccc(O)cc1)C(=O)N2	Tumor necrosis factor receptor superfamily member 9/Nectin-4	reporter gene	HT-1376 coculture with reporter cells	–	1.14 nM
Nc1nc2c(ncn2[C@@H]2O[C@@H]3COP(=O)(O)O[C@H]3[C@H]2O)c(=O)[nH]1	Cone cGMP-gated channel (Morone saxatilis, UniProt Q3I0N1+Q3I0N2)	channel current, suction electrode	Morone saxatilis, cone outer segments	with: 2 µM Ca2+	265000 ± 21800 nM
Nc1ncnc2c1ncn2[C@@H]1O[C@H](COP(=O)(O)OP(=O)(O)OP(=O)(O)O)[C@@H](O)[C@H]1O	P2X purinoceptor 2 (P2RX2, Homo sapiens, UniProt Q9UBL9)	ion current, two-electrode voltage clamp	Xenopus oocytes	–	9090 nM
CCCC[C@@H]1NC(=O)[C@H](Cc2ccc(O)cc2)NC(=O)[C@@H]2CCCN2C(=O)[C@H](CC(=O)O)NC(=O)[C@H](C)NC(=O)[C@H](Cc2ccccc2)NC(=O)[C@@H]2CSCCC(=O)N3CN(CN(C3)C(=O)CCSC[C@@H](C(=O)N[C@@H](C)C(N)=O)NC1=O)C(=O)CCSC[C@H](NC(C)=O)C(=O)N[C@@H](CC(C)(C)C)C(=O)N1CCC[C@H]1C(=O)N[C@@H](CCC(=O)O)C(=O)N[C@H](CCCCNC(=O)CCOCCOCCOCCOCCOCCOCCOCCOCCOCCOCCOCCOCCn1cc(CCC(=O)NCCC(=O)N(C)CC(=O)N(C)CC(=O)N(C)CC(=O)N(C)CC(=O)N(C)CC(=O)N(C)CC(=O)N(C)CC(=O)N(C)CC(=O)N(C)CC(=O)N(C)CC(=O)N[C@H]3CSCCC(=O)N4CN5CN(C4)C(=O)CCSC[C@H](NC(=O)[C@@H](CC(=O)O)NC(=O)[C@H](Cc4cccc6ccccc46)NC(=O)[C@@H]4CCCN4C3=O)C(=O)N[C@@H](CCSC)C(=O)N[C@@H](CCCCNC(=N)N)C(=O)N[C@@H](CC(=O)O)C(=O)N[C@@H](Cc3c[nH]c4ccccc34)C(=O)N[C@@H](CO)C(=O)N[C@@H]([C@@H](C)O)C(=O)N3CCC[C@H]3C(=O)N3C[C@H](O)C[C@H]3C(=O)N[C@@H](Cc3c[nH]c4ccccc34)C(=O)N[C@H](C(N)=O)CSCCC5=O)nn1)C(=O)N1CCC[C@H]1C(=O)N[C@@H](Cc1ccc(O)cc1)C(=O)N2	Tumor necrosis factor receptor superfamily member 9/Nectin-4	reporter gene	HT-1376 coculture with reporter cells	–	2.06 nM
CCCCC[C@H](O)/C=C/[C@H]1[C@H](O)CC(=O)[C@@H]1C/C=C\CCCC(=O)O	PTGER1 (Homo sapiens, UniProt P34995, F334A/G92A)	IP1 accumulation	AD293	–	311 nM
CCc1nccnc1OC	OR5K1 A2T/I280V/T15M/V39I/Y193C	cAMP	HEK293 transfected with OR5K1	–	387000 ± 75800 nM
CCCC[C@@H]1NC(=O)[C@H](Cc2ccc(O)cc2)NC(=O)[C@@H]2CCCN2C(=O)[C@H](CCC(=O)O)NC(=O)[C@H](C)NC(=O)[C@H](Cc2ccccc2)NC(=O)[C@@H]2CSCCC(=O)N3CN(CN(C3)C(=O)CCSC[C@H](NC(C)=O)C(=O)N[C@@H](CC(C)(C)C)C(=O)N3CCC[C@H]3C(=O)N[C@@H](CCC(=O)O)C(=O)N[C@H](CCCCNC(=O)CCc3cn(CCOCCOCCOCCN(CCOCCOCCOCCC(=O)N[C@H]4CSCCC(=O)N5CN6CN(C5)C(=O)CCSC[C@H](NC(=O)[C@@H](CC(=O)O)NC(=O)[C@H](Cc5cccc7ccccc57)NC(=O)[C@@H]5CCCN5C4=O)C(=O)N[C@@H](CCSC)C(=O)N[C@@H](CCCCNC(=N)N)C(=O)N[C@@H](CC(=O)O)C(=O)N[C@@H](Cc4c[nH]c5ccccc45)C(=O)N[C@@H](CO)C(=O)N[C@@H]([C@@H](C)O)C(=O)N4CCC[C@H]4C(=O)N4C[C@H](O)C[C@H]4C(=O)N[C@@H](Cc4c[nH]c5ccccc45)C(=O)N[C@H](C(N)=O)CSCCC6=O)CCOCCOCCOCCn4cc(CCC(=O)NCCCC[C@H]5NC(=O)[C@H](CCC(=O)O)NC(=O)[C@@H]6CCCN6C(=O)[C@H](CC(C)(C)C)NC(=O)[C@@H](NC(C)=O)CSCCC(=O)N6CN7CN(C6)C(=O)CCSC[C@H](NC(=O)[C@H](Cc6ccc(O)cc6)NC(=O)[C@@H]6CCCN6C5=O)C(=O)N[C@@H](Cc5ccccc5)C(=O)N[C@@H](C)C(=O)N[C@@H](CCC(=O)O)C(=O)N5CCC[C@H]5C(=O)N[C@@H](Cc5ccc(O)cc5)C(=O)N[C@@H](CCCC)C(=O)N[C@H](C(N)=O)CSCCC7=O)nn4)nn3)C(=O)N3CCC[C@H]3C(=O)N[C@@H](Cc3ccc(O)cc3)C(=O)N2)C(=O)CCSC[C@@H](C(N)=O)NC1=O	Tumor necrosis factor receptor superfamily member 9/Nectin-4	reporter gene	HT-1376 coculture with reporter cells	–	11.9 nM
CNc1ccccc1-n1cnc(-c2ccc([N+](=O)[O-])cc2)c1	Toll-like receptor 1/2	reporter gene	HEK-Blue hTLR2	24 h	> 100000 nM
CCO[C@H](COc1ccc(C(F)(F)F)cc1)CSc1ccc(OCC(=O)O)c(C)c1	PPARD (Homo sapiens, UniProt Q03181)	reporter gene, luciferase reporter	–	serum-free	30 nM

Some of these lines once more:
SMILES	target	assay	system	conditions	EC50
Nc1ncnc2c1ncn2[C@@H]1O[C@H](COP(=O)(O)OP(=O)(O)OP(=O)(O)O)[C@@H](O)[C@H]1O	P2X purinoceptor 2 (P2RX2, Homo sapiens, UniProt Q9UBL9)	ion current, two-electrode voltage clamp	Xenopus oocytes	–	9090 nM
CCCC[C@@H]1NC(=O)[C@H](Cc2ccc(O)cc2)NC(=O)[C@@H]2CCCN2C(=O)[C@H](CC(=O)O)NC(=O)[C@H](C)NC(=O)[C@H](Cc2ccccc2)NC(=O)[C@@H]2CSCCC(=O)N3CN(CN(C3)C(=O)CCSC[C@@H](C(=O)N[C@@H](C)C(N)=O)NC1=O)C(=O)CCSC[C@H](NC(C)=O)C(=O)N[C@@H](CC(C)(C)C)C(=O)N1CCC[C@H]1C(=O)N[C@@H](CCC(=O)O)C(=O)N[C@H](CCCCNC(=O)CCOCCOCCOCCOCCOCCOCCOCCOCCOCCOCCOCCOCCn1cc(CCC(=O)NCCC(=O)N(C)CC(=O)N(C)CC(=O)N(C)CC(=O)N(C)CC(=O)N(C)CC(=O)N(C)CC(=O)N(C)CC(=O)N(C)CC(=O)N(C)CC(=O)N(C)CC(=O)N[C@H]3CSCCC(=O)N4CN5CN(C4)C(=O)CCSC[C@H](NC(=O)[C@@H](CC(=O)O)NC(=O)[C@H](Cc4cccc6ccccc46)NC(=O)[C@@H]4CCCN4C3=O)C(=O)N[C@@H](CCSC)C(=O)N[C@@H](CCCCNC(=N)N)C(=O)N[C@@H](CC(=O)O)C(=O)N[C@@H](Cc3c[nH]c4ccccc34)C(=O)N[C@@H](CO)C(=O)N[C@@H]([C@@H](C)O)C(=O)N3CCC[C@H]3C(=O)N3C[C@H](O)C[C@H]3C(=O)N[C@@H](Cc3c[nH]c4ccccc34)C(=O)N[C@H](C(N)=O)CSCCC5=O)nn1)C(=O)N1CCC[C@H]1C(=O)N[C@@H](Cc1ccc(O)cc1)C(=O)N2	Tumor necrosis factor receptor superfamily member 9/Nectin-4	reporter gene	HT-1376 coculture with reporter cells	–	2.06 nM
